{"data": "Results pooled from the literature", "note": "Each numbered part is a random draw from the data of one study; scales do not carry over between parts.", "UniProt P42336, sequence (whole entry, unmodified, looked up)": "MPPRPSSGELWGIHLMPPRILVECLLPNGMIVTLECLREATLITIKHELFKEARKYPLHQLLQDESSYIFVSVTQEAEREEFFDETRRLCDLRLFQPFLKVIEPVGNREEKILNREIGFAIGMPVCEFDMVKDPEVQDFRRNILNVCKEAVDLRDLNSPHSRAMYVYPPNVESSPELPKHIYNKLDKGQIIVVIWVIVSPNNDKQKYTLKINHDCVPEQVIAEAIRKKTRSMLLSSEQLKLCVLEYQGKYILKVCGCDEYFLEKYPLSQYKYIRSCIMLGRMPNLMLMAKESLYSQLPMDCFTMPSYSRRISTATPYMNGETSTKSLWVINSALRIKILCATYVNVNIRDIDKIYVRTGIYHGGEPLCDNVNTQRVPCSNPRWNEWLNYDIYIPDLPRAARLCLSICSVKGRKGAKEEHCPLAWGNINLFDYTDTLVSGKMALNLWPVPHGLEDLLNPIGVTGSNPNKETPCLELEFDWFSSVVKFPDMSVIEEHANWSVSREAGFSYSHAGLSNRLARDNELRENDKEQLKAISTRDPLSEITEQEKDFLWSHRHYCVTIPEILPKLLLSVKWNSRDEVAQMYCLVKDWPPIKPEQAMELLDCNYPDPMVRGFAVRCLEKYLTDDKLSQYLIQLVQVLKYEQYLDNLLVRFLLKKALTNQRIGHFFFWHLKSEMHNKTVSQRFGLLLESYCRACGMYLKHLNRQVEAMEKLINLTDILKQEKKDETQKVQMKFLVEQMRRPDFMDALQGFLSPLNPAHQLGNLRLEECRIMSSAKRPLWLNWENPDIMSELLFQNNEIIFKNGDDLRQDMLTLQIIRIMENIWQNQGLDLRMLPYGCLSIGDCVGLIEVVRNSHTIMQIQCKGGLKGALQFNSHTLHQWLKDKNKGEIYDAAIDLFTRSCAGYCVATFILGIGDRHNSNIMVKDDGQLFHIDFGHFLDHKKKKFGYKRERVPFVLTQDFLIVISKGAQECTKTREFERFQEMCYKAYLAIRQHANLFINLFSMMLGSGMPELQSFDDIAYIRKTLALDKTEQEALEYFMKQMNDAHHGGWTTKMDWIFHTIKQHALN", "UniProt Q12851, sequence (whole entry, looked up)": "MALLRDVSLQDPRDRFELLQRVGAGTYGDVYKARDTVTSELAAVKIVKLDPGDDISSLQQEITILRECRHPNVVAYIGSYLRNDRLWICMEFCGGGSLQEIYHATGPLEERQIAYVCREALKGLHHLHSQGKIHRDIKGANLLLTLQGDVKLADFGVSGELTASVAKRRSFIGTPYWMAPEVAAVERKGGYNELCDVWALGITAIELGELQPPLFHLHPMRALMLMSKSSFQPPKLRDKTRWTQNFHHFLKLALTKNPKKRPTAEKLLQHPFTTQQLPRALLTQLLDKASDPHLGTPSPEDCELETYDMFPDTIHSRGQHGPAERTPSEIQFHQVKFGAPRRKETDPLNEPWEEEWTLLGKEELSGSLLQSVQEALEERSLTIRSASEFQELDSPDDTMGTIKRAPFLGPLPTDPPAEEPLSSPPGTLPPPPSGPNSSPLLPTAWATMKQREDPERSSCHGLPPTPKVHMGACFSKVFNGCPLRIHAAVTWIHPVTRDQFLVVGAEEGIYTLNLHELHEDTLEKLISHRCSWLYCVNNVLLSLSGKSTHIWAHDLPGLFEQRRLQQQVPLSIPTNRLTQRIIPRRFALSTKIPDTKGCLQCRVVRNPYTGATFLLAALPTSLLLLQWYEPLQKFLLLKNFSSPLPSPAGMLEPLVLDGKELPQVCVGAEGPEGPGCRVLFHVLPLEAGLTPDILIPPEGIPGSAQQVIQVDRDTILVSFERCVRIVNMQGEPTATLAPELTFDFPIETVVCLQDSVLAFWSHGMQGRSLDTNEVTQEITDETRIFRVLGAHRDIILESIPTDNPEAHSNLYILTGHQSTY", "UniProt Q99759, sequence (whole entry, looked up)": "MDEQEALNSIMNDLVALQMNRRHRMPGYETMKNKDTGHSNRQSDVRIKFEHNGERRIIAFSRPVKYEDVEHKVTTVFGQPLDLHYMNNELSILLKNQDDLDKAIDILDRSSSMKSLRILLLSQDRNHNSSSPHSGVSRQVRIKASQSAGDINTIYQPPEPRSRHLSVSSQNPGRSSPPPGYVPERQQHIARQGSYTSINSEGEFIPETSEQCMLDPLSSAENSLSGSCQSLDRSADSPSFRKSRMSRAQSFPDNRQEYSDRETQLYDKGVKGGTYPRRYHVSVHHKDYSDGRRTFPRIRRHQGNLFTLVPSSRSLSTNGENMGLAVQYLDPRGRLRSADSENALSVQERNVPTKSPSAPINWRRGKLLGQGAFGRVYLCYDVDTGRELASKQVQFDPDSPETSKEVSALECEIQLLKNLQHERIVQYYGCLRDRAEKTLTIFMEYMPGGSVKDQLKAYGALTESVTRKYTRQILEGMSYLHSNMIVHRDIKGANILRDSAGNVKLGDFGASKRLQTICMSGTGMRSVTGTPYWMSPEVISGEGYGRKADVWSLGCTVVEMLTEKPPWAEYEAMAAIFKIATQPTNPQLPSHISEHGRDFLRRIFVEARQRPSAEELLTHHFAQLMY", "UniProt Q2M2I8, sequence (whole entry, looked up)": "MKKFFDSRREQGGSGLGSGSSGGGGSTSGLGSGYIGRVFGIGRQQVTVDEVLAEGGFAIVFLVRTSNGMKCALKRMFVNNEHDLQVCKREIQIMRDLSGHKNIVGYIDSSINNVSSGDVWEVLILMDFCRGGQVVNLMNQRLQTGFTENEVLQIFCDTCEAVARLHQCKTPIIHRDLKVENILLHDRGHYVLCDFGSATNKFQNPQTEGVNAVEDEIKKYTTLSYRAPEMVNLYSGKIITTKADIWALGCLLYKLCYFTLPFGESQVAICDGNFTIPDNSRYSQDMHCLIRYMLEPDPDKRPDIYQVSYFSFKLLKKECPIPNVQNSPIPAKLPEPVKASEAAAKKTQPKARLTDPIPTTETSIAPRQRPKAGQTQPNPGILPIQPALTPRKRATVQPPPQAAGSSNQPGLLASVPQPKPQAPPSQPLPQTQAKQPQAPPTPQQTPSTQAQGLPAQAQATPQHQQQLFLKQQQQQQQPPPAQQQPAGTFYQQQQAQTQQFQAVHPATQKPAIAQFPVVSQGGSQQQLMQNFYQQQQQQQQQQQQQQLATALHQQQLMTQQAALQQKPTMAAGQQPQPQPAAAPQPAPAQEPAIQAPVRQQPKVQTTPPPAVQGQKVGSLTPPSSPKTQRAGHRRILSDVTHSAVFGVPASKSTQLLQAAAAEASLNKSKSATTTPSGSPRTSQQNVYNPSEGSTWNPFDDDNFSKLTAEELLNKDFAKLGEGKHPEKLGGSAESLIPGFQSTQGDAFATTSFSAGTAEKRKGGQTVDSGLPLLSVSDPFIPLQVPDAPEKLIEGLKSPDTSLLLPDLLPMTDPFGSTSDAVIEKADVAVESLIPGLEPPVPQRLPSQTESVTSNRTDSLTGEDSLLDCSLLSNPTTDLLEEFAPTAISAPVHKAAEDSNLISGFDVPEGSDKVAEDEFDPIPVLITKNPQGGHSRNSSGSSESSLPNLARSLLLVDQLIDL", "UniProt Q9HBH9, sequence (whole entry, looked up)": "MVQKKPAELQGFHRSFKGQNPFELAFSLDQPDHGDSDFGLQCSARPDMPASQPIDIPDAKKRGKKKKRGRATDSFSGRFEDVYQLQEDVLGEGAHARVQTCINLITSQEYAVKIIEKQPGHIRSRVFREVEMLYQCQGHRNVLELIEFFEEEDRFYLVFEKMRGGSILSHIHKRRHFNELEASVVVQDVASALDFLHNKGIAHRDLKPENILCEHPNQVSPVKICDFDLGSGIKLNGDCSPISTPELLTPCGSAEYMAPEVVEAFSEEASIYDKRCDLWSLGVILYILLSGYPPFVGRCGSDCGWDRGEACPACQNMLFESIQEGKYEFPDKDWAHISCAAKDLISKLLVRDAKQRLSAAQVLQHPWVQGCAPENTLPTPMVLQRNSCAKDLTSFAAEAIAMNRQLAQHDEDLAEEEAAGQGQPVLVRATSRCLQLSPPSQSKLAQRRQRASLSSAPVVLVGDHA"}
{"data": "Sample 1", "target": "Tyrosine-protein kinase Fgr (FGR, Homo sapiens, UniProt P09769)", "observed": "enzyme activity", "mode": "inhibitor", "tested at": "0.5 µM", "baseline": "control", "UniProt P09769, sequence (whole entry, looked up)": "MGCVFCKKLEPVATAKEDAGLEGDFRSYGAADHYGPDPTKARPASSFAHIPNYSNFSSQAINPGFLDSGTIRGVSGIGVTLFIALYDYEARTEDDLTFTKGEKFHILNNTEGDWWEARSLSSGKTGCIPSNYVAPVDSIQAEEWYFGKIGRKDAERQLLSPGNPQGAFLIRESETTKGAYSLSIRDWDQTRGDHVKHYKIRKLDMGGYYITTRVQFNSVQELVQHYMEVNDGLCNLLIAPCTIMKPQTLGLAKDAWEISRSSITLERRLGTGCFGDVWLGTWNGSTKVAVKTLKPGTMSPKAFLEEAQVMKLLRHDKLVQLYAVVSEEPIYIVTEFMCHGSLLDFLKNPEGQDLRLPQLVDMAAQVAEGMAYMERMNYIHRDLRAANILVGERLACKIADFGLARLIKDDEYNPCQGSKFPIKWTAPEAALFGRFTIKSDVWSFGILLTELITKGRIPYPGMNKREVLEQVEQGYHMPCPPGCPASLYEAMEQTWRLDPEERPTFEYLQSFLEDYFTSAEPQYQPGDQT"}
{"SMILES": "Nc1nc(Nc2ccc(S(N)(=O)=O)cc2)nn1C(=S)Nc1c(F)cccc1F", "remaining activity [%]": 17.1}
{"SMILES": "C[C@@H](N)[C@H]1CC[C@H](C(=O)Nc2ccncc2)CC1", "remaining activity [%]": 88.8}
{"SMILES": "CCCCc1c(-c2ccc(O)cc2)[nH]c2nccnc12", "remaining activity [%]": 63}
{"SMILES": "N#CC(c1ccnc(NCCc2cccnc2)n1)c1nc2ccccc2s1 (stereo not shown)", "remaining activity [%]": 86.1}
{"SMILES": "O=C1NC(=O)/C(=C/c2ccc3c(c2)OC(F)(F)O3)S1", "remaining activity [%]": 95.8}
{"SMILES": "N#C/C(=C(/N)SC1C=CC=CC1)c1cccc(C(O)c2ccncc2)c1 (stereo not shown)", "remaining activity [%]": 96.2}
{"SMILES": "CCN(CC)CCCCN1c2ccccc2Oc2ccc(Cl)cc21", "remaining activity [%]": 101}
{"SMILES": "CNc1cc2c(Nc3cccc(Br)c3)ncnc2cn1", "remaining activity [%]": 88.3}
{"SMILES": "O=C(O)/C=C/c1cc(Br)c(Br)c(Br)c1Br", "remaining activity [%]": 98.4}
{"SMILES": "O=Nc1c(-c2c(O)[nH]c3ccccc23)[nH]c2ccccc12", "remaining activity [%]": 35.7}
{"SMILES": "NC(=O)c1cccc(-c2cc(Nc3ccc(OC(F)(F)F)cc3)ncn2)c1", "remaining activity [%]": 96.8}
{"SMILES": "O=C(c1ccccc1)c1ccc(N2CCOCC2)cc1O", "remaining activity [%]": 104}
{"SMILES": "O=C1c2ccccc2-c2nc3nnnn3nc21", "remaining activity [%]": 79.8}
{"SMILES": "O=c1c(-c2ccc(F)cc2)c(-c2ccncc2)[nH]n1-c1ccc(Cl)cc1", "remaining activity [%]": 87.4}
{"SMILES": "CC(C)n1cnc2c(Nc3cccc(Cl)c3)nc(NCCO)nc21", "remaining activity [%]": 61.5}
{"SMILES": "CC(C)(C)c1nc2c3cc[nH]c(=O)c3c3cc(F)ccc3c2[nH]1", "remaining activity [%]": 76.9}
{"SMILES": "c1cc(-c2cnn3cc(-c4ccc(OCCN5CCCCC5)cc4)cnc23)ccn1", "remaining activity [%]": 27.5}
{"SMILES": "FC(F)(F)c1ccc(/C=C/c2nc(COc3ccc(CCCCn4ccnn4)cc3)co2)cc1", "remaining activity [%]": 92.6}
{"SMILES": "COc1cc2c(Nc3ccc(Br)cc3F)ncnc2cc1OCC1CCN(C)CC1", "remaining activity [%]": 30}
{"SMILES": "COc1cc2c(N3CCN(C(=O)Nc4ccc(OC(C)C)cc4)CC3)ncnc2cc1OCCCN1CCCCC1", "remaining activity [%]": 94}
{"SMILES": "Clc1ccc(Nc2nnc(Cc3ccncc3)c3ccccc23)cc1", "remaining activity [%]": 96.8}
{"SMILES": "CC(C)N(CCC(=O)c1ccc2ccccc2c1)Cc1ccccc1", "remaining activity [%]": 94.2}
{"SMILES": "NC(=O)c1ccc(-c2nc(-c3ccc4c(c3)OCCO4)c(-c3ccccn3)[nH]2)cc1", "remaining activity [%]": 96.7}
{"data": "Sample 2", "target": "Calcium/calmodulin-dependent protein kinase type II subunit alpha (CAMK2A, Homo sapiens, UniProt Q9UQM7)", "observed": "enzyme activity", "mode": "inhibitor", "tested at": "10 µM", "UniProt Q9UQM7, sequence (whole entry, looked up)": "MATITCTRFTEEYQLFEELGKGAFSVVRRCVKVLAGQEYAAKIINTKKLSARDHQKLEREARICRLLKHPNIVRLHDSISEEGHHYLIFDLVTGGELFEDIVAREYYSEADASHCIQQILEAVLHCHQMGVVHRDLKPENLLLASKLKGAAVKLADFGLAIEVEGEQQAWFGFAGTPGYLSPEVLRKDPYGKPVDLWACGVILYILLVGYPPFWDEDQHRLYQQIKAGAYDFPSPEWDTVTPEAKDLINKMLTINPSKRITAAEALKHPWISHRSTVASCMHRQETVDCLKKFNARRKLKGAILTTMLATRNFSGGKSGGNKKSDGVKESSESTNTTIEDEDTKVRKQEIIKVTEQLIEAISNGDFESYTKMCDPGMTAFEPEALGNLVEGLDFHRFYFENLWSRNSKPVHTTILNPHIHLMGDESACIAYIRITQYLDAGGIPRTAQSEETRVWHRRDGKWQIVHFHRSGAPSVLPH"}
{"SMILES": "CC/C=C\\C/C=C\\C/C=C\\CCCCCCCC(=O)O", "inhibition [%]": -16}
{"SMILES": "COc1ccc(/C=C/C(=O)c2ccc(OC)cc2)cc1", "inhibition [%]": 35}
{"SMILES": "COc1ccc(-c2cc(=O)c3c(OC)cc(OC)cc3o2)cc1", "inhibition [%]": -3}
{"SMILES": "COc1ccc(O)c(N)c1", "inhibition [%]": 10}
{"SMILES": "CC1=C(/C=C/C(C)=C/C=C/C(C)=C/C=C/C=C(C)/C=C/C=C(\\C)C=O)C(C)(C)CCC1", "inhibition [%]": -57}
{"SMILES": "CNCCCN1c2ccccc2CCc2ccccc21", "inhibition [%]": -2}
{"SMILES": "COc1cc2c(cc1OC)-c1cc3ccc(OC)c(OC)c3c[n+]1CC2", "inhibition [%]": -15}
{"SMILES": "O=C(O)C[C@@H](O)C(=O)O", "inhibition [%]": -25}
{"SMILES": "O=C(O)c1ccnc2ccccc12", "inhibition [%]": -28}
{"SMILES": "CCN1CC(CCN2CCOCC2)C(c2ccccc2)(c2ccccc2)C1=O (stereo not shown)", "inhibition [%]": -1}
{"data": "Sample 3", "cell line": "mouse MPNST tumor cells", "technique": "high-content immunofluorescence imaging", "refers to": "nuclear SOX9", "tested at": "10 µM", "time": "12 h", "notes": "mean of 2 replicates", "baseline": "DMSO control", "reading": "higher = more nuclear SOX9"}
{"SMILES": "O=C1c2cccc(O)c2C(=O)c2c(O)cccc21", "nuclear SOX9 intensity": "121 % of DMSO"}
{"SMILES": "Cc1cc(C2CCCCC2)n(O)c(=O)c1", "nuclear SOX9 intensity": "158 % of DMSO"}
{"SMILES": "CN(c1nccc(=O)[nH]1)C1CCN(c2nc3ccccc3n2Cc2ccc(F)cc2)CC1", "nuclear SOX9 intensity": "108 % of DMSO"}
{"SMILES": "OC1C(CCl)OC(n2cnc3c(NC4CC5CCC4C5)ncnc32)C1O (stereo not shown)", "nuclear SOX9 intensity": "94.6 % of DMSO"}
{"SMILES": "CN1C(C)(C)CCCC1(C)C", "nuclear SOX9 intensity": "82.9 % of DMSO"}
{"SMILES": "CC(=O)NNC(=O)N1Cc2ccccc2Oc2ccc(Cl)cc21", "nuclear SOX9 intensity": "102 % of DMSO"}
{"SMILES": "Oc1cc2c(cc1O)CN(C(=S)NCCc1ccc(Cl)cc1)CCC2", "nuclear SOX9 intensity": "107 % of DMSO"}
{"SMILES": "COc1ccc(CC2NCCc3c2[nH]c2ccc(C)cc32)cc1OC (stereo not shown)", "nuclear SOX9 intensity": "174 % of DMSO"}
{"SMILES": "N#CC(c1ccc(Cl)cc1)c1c(Cl)cc(-n2ncc(=O)[nH]c2=O)cc1Cl (stereo not shown)", "nuclear SOX9 intensity": "81.1 % of DMSO"}
{"SMILES": "CCOC(=O)c1ccc(C#Cc2ccc3c(c2)C(C)(C)CCS3)nc1", "nuclear SOX9 intensity": "137 % of DMSO"}
{"SMILES": "CC(C)NC[C@H](O)COc1cccc2ccccc12", "nuclear SOX9 intensity": "119 % of DMSO"}
{"SMILES": "Cc1ccc(S(=O)(=O)Cc2nc(-c3ccc(C(=O)NCc4cccnc4)cc3)oc2C)cc1", "nuclear SOX9 intensity": "93 % of DMSO"}
{"data": "Sample 4", "Compound": "Cc1cc(-n2nc(Cc3cc(F)cc(C(F)(F)F)c3)nc2C)ccc1C(N)=O", "tested at": "1 µM"}
{"target": "Mitogen-activated protein kinase kinase kinase 6 (MAP3K6, Homo sapiens, UniProt O95382)", "test": "cell-free assay, competition with immobilised ligand", "remaining binding [%]": 100}
{"target": "Mitogen-activated protein kinase kinase kinase kinase 2 (MAP4K2, Homo sapiens, UniProt Q12851)", "test": "cell-free assay, competition with immobilised ligand", "remaining binding [%]": 100}
{"target": "Serine/threonine-protein kinase D3 (PRKD3, Homo sapiens, UniProt O94806)", "test": "cell-free assay, competition with immobilised ligand", "remaining binding [%]": 81}
{"target": "Maternal embryonic leucine zipper kinase (MELK, Homo sapiens, UniProt Q14680)", "test": "cell-free assay, competition with immobilised ligand", "remaining binding [%]": 100}
{"target": "Epidermal growth factor receptor (EGFR, Homo sapiens, UniProt P00533, del747-750/T751S)", "test": "cell-free assay, competition with immobilised ligand", "remaining binding [%]": 100}
{"target": "Serine/threonine-protein kinase 16 (STK16, Homo sapiens, UniProt O75716)", "test": "cell-free assay, competition with immobilised ligand", "remaining binding [%]": 91}
{"target": "MAP kinase-interacting serine/threonine-protein kinase 2 (MKNK2, Homo sapiens, UniProt Q9HBH9)", "test": "cell-free assay, competition with immobilised ligand", "remaining binding [%]": 100}
{"target": "Activin receptor type-1B (ACVR1B, Homo sapiens, UniProt P36896)", "test": "cell-free assay, competition with immobilised ligand", "remaining binding [%]": 93}
{"target": "RAC-beta serine/threonine-protein kinase (AKT2, Homo sapiens, UniProt P31751)", "test": "cell-free assay, competition with immobilised ligand", "remaining binding [%]": 100}
{"target": "Hepatocyte growth factor receptor (MET, Homo sapiens, UniProt P08581, Y1235D)", "test": "cell-free assay, competition with immobilised ligand", "remaining binding [%]": 90}
{"target": "AP2-associated protein kinase 1 (AAK1, Homo sapiens, UniProt Q2M2I8)", "test": "binding", "remaining binding [%]": 100}
{"target": "Dual specificity protein kinase TTK (TTK, Homo sapiens, UniProt P33981)", "test": "cell-free assay, competition with immobilised ligand", "remaining binding [%]": 90}
{"target": "BMP-2-inducible protein kinase (BMP2K, Homo sapiens, UniProt Q9NSY1)", "test": "cell-free assay, competition with immobilised ligand", "remaining binding [%]": 100}
{"target": "Mitogen-activated protein kinase kinase kinase 3 (MAP3K3, Homo sapiens, UniProt Q99759)", "test": "cell-free assay, competition with immobilised ligand", "remaining binding [%]": 94}
{"target": "Mitogen-activated protein kinase kinase kinase 4 (MAP3K4, Homo sapiens, UniProt Q9Y6R4)", "test": "cell-free assay, competition with immobilised ligand", "remaining binding [%]": 98}
{"target": "Ephrin type-A receptor 8 (EPHA8, Homo sapiens, UniProt P29322)", "test": "cell-free assay, competition with immobilised ligand", "remaining binding [%]": 100}
{"target": "Phosphatidylinositol 4,5-bisphosphate 3-kinase catalytic subunit alpha isoform (PIK3CA, Homo sapiens, UniProt P42336, Q546K)", "test": "cell-free assay, competition with immobilised ligand", "remaining binding [%]": 76}
{"target": "Serine/threonine-protein kinase Nek3 (NEK3, Homo sapiens, UniProt P51956)", "test": "cell-free assay, competition with immobilised ligand", "remaining binding [%]": 100}
{"target": "Dual specificity mitogen-activated protein kinase kinase 4 (MAP2K4, Homo sapiens, UniProt P45985)", "test": "cell-free assay, competition with immobilised ligand", "remaining binding [%]": 100}
{"target": "Phosphatidylinositol 4,5-bisphosphate 3-kinase catalytic subunit alpha isoform (PIK3CA, Homo sapiens, UniProt P42336, E542K)", "test": "cell-free assay, competition with immobilised ligand", "remaining binding [%]": 73}
{"target": "Serine/threonine-protein kinase 10 (STK10, Homo sapiens, UniProt O94804)", "test": "cell-free assay, competition with immobilised ligand", "remaining binding [%]": 100}
{"target": "Hepatocyte growth factor receptor (MET, Homo sapiens, UniProt P08581, M1250T)", "test": "cell-free assay, competition with immobilised ligand", "remaining binding [%]": 80}
{"target": "Ribosomal protein S6 kinase alpha-6, C-terminal kinase domain (RPS6KA6, Homo sapiens, UniProt Q9UK32)", "test": "cell-free assay, competition with immobilised ligand", "remaining binding [%]": 100}
{"target": "Serine/threonine-protein kinase 32C (STK32C, Homo sapiens, UniProt Q86UX6)", "test": "cell-free assay, competition with immobilised ligand", "remaining binding [%]": 100}
{"target": "Serine/threonine-protein kinase/endoribonuclease IRE1 (ERN1, Homo sapiens, UniProt O75460)", "test": "cell-free assay, competition with immobilised ligand", "remaining binding [%]": 100}
